Measured values gathered from unrelated publications.
Parts stem from different laboratories: compare values within a part only. “And” joins repeats or separate records; there may be more than shown.
UniProt P11712, sequence (whole entry, looked up): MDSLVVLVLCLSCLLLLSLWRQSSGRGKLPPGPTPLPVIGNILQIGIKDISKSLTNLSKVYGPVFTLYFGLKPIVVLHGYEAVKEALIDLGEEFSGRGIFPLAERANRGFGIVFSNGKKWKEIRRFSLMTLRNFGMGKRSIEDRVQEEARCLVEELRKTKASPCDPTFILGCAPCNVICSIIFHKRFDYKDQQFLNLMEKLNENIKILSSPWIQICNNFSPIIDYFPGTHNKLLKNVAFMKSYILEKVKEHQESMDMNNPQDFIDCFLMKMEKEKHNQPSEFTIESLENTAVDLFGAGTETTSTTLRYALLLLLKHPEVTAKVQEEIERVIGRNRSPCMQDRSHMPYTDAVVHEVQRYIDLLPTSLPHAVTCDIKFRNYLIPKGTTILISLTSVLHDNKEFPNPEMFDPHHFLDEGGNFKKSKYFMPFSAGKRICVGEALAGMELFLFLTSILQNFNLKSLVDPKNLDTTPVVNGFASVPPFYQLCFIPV
UniProt P33261, sequence (whole entry, looked up): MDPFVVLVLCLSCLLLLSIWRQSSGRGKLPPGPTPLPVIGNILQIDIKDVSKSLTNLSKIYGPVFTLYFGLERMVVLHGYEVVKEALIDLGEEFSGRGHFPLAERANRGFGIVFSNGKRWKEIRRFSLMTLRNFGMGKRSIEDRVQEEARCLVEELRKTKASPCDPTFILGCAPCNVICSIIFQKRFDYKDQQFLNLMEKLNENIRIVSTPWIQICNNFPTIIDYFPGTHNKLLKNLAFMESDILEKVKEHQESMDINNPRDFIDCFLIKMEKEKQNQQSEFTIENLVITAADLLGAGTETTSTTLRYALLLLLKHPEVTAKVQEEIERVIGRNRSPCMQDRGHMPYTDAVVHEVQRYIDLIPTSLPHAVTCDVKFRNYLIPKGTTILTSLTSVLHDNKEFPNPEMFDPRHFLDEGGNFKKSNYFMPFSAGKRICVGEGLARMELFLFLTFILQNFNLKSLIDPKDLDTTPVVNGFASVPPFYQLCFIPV
UniProt P10635, sequence (whole entry, looked up): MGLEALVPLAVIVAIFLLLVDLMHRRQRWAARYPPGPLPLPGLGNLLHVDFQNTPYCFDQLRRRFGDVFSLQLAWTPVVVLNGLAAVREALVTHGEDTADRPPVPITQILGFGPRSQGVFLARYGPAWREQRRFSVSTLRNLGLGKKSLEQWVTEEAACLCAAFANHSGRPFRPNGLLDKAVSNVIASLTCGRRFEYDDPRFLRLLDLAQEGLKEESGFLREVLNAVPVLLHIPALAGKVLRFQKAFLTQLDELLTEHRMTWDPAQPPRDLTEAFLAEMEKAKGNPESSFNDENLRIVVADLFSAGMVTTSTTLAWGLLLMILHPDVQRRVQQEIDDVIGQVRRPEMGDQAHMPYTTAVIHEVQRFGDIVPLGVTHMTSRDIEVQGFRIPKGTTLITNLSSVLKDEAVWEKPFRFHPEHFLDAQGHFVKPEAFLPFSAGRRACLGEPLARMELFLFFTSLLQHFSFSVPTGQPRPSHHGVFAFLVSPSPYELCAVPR
UniProt Q12851, sequence (whole entry, looked up): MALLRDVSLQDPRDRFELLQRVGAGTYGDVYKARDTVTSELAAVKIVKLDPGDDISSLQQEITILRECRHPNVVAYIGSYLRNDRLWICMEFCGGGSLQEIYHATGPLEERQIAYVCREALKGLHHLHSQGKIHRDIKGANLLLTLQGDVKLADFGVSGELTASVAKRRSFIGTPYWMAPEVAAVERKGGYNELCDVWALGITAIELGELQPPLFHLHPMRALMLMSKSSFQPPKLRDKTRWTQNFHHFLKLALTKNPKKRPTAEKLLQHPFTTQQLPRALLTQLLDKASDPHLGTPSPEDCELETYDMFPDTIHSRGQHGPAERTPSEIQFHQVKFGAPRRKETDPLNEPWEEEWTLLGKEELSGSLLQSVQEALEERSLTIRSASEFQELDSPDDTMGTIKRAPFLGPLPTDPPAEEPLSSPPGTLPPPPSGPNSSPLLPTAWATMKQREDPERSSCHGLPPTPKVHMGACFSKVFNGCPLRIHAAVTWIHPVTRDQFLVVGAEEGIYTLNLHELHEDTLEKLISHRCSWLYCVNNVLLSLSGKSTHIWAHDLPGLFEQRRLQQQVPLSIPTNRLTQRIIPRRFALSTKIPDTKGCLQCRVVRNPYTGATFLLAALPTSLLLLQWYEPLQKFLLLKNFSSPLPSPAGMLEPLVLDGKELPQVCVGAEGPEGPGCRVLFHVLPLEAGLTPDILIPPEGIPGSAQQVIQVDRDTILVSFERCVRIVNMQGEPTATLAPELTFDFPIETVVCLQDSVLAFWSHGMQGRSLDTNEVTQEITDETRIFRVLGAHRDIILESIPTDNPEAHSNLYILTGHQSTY
UniProt Q96PF2, sequence (whole entry, looked up): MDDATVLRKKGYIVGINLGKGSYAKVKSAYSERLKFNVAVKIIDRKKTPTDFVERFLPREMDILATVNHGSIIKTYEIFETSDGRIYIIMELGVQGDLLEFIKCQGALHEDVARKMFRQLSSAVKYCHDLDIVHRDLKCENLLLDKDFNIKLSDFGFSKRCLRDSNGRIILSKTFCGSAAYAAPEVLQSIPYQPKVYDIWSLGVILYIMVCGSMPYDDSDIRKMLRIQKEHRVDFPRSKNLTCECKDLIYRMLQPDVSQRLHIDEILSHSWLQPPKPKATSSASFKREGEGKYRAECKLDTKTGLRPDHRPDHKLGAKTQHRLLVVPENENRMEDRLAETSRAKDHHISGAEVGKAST
UniProt Q15418, sequence (whole entry, looked up): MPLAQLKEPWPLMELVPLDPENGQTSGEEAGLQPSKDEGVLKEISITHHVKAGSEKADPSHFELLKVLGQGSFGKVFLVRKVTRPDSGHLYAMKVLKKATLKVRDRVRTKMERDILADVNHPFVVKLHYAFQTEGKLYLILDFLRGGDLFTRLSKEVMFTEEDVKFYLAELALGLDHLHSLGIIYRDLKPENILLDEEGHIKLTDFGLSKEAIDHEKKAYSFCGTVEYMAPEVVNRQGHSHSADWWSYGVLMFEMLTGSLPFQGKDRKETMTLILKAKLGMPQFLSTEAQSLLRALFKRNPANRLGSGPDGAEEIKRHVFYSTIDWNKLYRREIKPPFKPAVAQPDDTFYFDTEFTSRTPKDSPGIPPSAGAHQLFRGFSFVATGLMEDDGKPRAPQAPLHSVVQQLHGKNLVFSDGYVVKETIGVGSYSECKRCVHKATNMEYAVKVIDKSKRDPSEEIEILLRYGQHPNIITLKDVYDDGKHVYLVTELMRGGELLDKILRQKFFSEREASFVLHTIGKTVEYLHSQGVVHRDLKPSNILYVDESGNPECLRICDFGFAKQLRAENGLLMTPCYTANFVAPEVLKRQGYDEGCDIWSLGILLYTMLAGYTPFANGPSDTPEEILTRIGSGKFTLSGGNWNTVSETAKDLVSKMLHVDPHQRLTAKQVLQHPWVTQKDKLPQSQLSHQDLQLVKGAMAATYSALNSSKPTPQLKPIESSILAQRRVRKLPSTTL
UniProt P42336, sequence (whole entry, looked up): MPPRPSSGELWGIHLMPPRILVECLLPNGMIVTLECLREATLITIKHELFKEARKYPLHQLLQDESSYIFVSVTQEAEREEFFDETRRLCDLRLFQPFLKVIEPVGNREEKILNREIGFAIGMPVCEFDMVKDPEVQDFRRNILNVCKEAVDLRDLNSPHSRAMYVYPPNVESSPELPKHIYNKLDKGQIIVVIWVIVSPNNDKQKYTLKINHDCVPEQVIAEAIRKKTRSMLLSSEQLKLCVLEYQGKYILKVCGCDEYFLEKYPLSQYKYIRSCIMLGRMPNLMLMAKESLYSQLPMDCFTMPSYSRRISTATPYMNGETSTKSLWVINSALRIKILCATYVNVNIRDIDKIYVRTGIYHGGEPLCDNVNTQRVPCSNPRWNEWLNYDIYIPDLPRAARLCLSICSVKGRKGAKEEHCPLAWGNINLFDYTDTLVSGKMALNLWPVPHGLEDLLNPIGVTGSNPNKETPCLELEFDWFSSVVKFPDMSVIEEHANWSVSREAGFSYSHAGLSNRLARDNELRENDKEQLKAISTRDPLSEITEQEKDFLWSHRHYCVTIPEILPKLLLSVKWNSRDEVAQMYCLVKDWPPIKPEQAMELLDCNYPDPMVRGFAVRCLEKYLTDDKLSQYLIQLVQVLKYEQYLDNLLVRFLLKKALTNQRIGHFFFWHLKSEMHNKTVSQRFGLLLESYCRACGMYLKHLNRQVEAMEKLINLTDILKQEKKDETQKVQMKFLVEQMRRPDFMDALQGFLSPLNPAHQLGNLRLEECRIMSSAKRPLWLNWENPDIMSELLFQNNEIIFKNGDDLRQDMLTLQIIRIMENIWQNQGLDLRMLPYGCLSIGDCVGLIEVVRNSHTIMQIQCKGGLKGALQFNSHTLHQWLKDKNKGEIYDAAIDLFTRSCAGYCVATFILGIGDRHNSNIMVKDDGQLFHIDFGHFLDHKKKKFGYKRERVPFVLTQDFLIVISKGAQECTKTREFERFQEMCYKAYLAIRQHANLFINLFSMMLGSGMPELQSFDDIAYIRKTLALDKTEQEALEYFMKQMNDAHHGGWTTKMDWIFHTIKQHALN

Study 1
SMILES: CN(C1COC1)C(C)(C)/C=C(\C#N)C(=O)N1CCC[C@H]1Cn1nc(-c2ccc(Oc3ccccc3)cc2F)c2c(N)ncnc21
Effect on: kinase activity
For cAMP-dependent protein kinase catalytic subunit alpha (PRKACA, Homo sapiens, UniProt P17612); 1 µM: inhibition read -5%.
It gave 1% for inhibition (Interleukin-1 receptor-associated kinase 1 (IRAK1, Homo sapiens, UniProt P51617); 1 µM).
For Phosphatidylinositol 4,5-bisphosphate 3-kinase catalytic subunit alpha isoform (PIK3CA, Homo sapiens, UniProt P42336); 1 µM: inhibition read 8%.
The inhibition was 15% (Tyrosine-protein kinase Srms (SRMS, Homo sapiens, UniProt Q9H3Y6); 1 µM).
It gave -1% for inhibition (Mitogen-activated protein kinase kinase kinase kinase 2 (MAP4K2, Homo sapiens, UniProt Q12851); 1 µM).
Tyrosine-protein kinase ZAP-70 (ZAP70, Homo sapiens, UniProt P43403); 0.1 µM — inhibition: 8%.
For Ribosomal protein S6 kinase alpha-1 (RPS6KA1, Homo sapiens, UniProt Q15418); 0.1 µM: inhibition read 4%.
Cyclin-dependent kinase 4, with cyclin D (CDK4, Homo sapiens, UniProt P11802); 0.1 µM — inhibition: 2%.
For Testis-specific serine/threonine-protein kinase 2 (TSSK2, Homo sapiens, UniProt Q96PF2); 1 µM: inhibition read 0%.

Study 2
SMILES: NC/C(=C\F)COc1cccc(Cn2c(=S)[nH]c(=O)c3[nH]cnc32)c1
Action: inhibitor
The remaining activity was 41% and 56.6% (Cytochrome P450 2C19 (CYP2C19, Homo sapiens, UniProt P33261); 30 µM).
The remaining activity was 68.2% and 89.2% (Cytochrome P450 2C9 (CYP2C9, Homo sapiens, UniProt P11712); 3.33 µM).
Cytochrome P450 3A4 (CYP3A4, Homo sapiens, UniProt P08684); enzyme activity; 30 µM — remaining activity: 37.3%.
The remaining activity was 96.7% and 89.5% (Cytochrome P450 2D6 (CYP2D6, Homo sapiens, UniProt P10635); 3.33 µM).

Study 3
SMILES: Cc1ccc2c(c1)OC(O)(C(=O)O)C(=O)N2Cc1ccccc1 (stereo not shown)
The inhibition was 62.8% and 65% and 61.5% (Abutilon theophrasti; fresh weight; 150 g ai/ha, pre-emergence treatment).
It gave 0.669% for inhibition (Arabidopsis thaliana; hypocotyl length; Col-0, seedlings; 3.125 µg/mL).
The inhibition was 12.4% (Arabidopsis thaliana; root length; Col-0, seedlings; 6.25 µg/mL).
It gave 21.5% for inhibition (Arabidopsis thaliana; hypocotyl length; Col-0, seedlings; 50 µg/mL).
It gave 12.4% for inhibition (Arabidopsis thaliana; root length; Col-0; 6.25 µg/mL, 7 days, seed germination, dark).
For Eclipta prostrata; fresh weight; 150 g ai/ha, post-emergence treatment: inhibition read 60.4% and 55.9% and 54.6%.
Setaria viridis; fresh weight; 150 g ai/ha, pre-emergence treatment — inhibition: 61.8% and 66.6% and 65.1%.
For Arabidopsis thaliana; hypocotyl length; Col-0, seedlings; 6.25 µg/mL: inhibition read 2.25%.
The inhibition was 21.5% (Arabidopsis thaliana; hypocotyl length; Col-0; 50.0 µg/mL, 7 days, seed germination, dark).
The inhibition was 10.2% (Arabidopsis thaliana; root length; Col-0, seedlings; 3.125 µg/mL; relative to: water control).
Arabidopsis thaliana; root length; Col-0; 100 µg/mL, 7 days, seed germination, dark — inhibition: 42.4%.
For Echinochloa crus-galli; fresh weight; 150 g ai/ha, post-emergence treatment: inhibition read 38.5% and 42% and 42.3%.
For Triticum aestivum; fresh weight; soil surface spray, 150 g ai/ha, 21 days, pre-emergence crop safety: inhibition read 16.9% and 16.2% and 15.8%.
Arabidopsis thaliana; root length; Col-0; 3.13 µg/mL, 7 days, seed germination, dark — inhibition: 10.2%.

Other studies, line by line
PKMYT1: Membrane-associated tyrosine- and threonine-specific cdc2-inhibitory kinase (PKMYT1, Homo sapiens, UniProt Q99640)
UniProt Q99640, sequence (whole entry, looked up): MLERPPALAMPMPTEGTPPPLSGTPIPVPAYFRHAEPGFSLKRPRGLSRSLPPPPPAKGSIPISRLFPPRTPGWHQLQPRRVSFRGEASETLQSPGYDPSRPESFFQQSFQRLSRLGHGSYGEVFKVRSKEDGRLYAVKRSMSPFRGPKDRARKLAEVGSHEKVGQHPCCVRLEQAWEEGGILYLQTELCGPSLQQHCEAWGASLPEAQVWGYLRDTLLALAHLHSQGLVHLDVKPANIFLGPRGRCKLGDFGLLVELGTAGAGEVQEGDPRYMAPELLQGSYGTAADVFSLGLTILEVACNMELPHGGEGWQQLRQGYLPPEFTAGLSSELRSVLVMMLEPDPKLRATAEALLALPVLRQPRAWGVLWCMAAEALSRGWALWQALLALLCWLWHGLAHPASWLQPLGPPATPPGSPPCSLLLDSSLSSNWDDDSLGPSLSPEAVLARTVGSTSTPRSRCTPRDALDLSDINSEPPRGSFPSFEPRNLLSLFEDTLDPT
The Dmax of Cc1ccc(O)c(C)c1-c1cnc2[nH]c(-c3cnc(N4CCC(CN5CCN(c6ccc7c(c6)CN(C6CCC(=O)NC6=O)C7=O)CC5)CC4)nc3)cc2c1C#N (stereo not shown) is reported as 87% (PKMYT1; degrader, automated immunoblot; HCC1569; 24 h).
With Cc1ccc(O)c(C)c1-c1cnc2[nH]c(-c3cnc(N4CCC(CN5CCN(c6ccc7c(c6F)CN(C6CCC(=O)NC6=O)C7=O)CC5)CC4)nc3)cc2c1C#N (stereo not shown) the Dmax was 92% (PKMYT1; degrader, automated immunoblot; HCC1569; 24 h).
Cc1ccc(O)c(C)c1-c1cnc2[nH]c(-c3cnc(N4CCC5(CC4)CC(N4CCN(c6cc7c(cc6F)c(N6CCC(=O)NC6=O)nn7C)CC4)CO5)nc3)cc2c1C#N (racemic) gave a protein level of 106% (PKMYT1; degrader, automated immunoblot (Jess); 0.1 nM; relative to: GAPDH).
Cc1ccc(O)c(C)c1-c1cnc2[nH]c(-c3cnc(N4CCC5(CC4)CC(N4CCN(c6ccc(NC7CCC(=O)NC7=O)cc6F)CC4)CO5)nc3)cc2c1C#N (stereo not shown) has a bioavailability of 53.4% (female CD-1 mouse, plasma; oral, 10 mg/kg).

For quick reference, copied from above (study 3):
The inhibition was 21.5% (Arabidopsis thaliana; hypocotyl length; Col-0; 50.0 µg/mL, 7 days, seed germination, dark).
The inhibition was 10.2% (Arabidopsis thaliana; root length; Col-0, seedlings; 3.125 µg/mL; relative to: water control).
Arabidopsis thaliana; root length; Col-0; 100 µg/mL, 7 days, seed germination, dark — inhibition: 42.4%.
For Echinochloa crus-galli; fresh weight; 150 g ai/ha, post-emergence treatment: inhibition read 38.5% and 42% and 42.3%.
For Triticum aestivum; fresh weight; soil surface spray, 150 g ai/ha, 21 days, pre-emergence crop safety: inhibition read 16.9% and 16.2% and 15.8%.
